Assay results from different studies.
Protocols differ between the studies behind these lines. Values joined by “and” are separate records of one study, mostly repeats; a detail may differ. Numbers after ± are the reported error.

COc1cc(N(C)CCN(C)C)c(NC(=O)CCSCC(NC(C)=O)C(=O)O)cc1Nc1nccc(-c2cn(C3CC3)c3ccccc23)n1 (centres unmarked)  excreted amount (human, urine and feces; 0 to 96 h urine, 0 to 240 h feces; relative to: dose): 2.04%
CC(C)(O)c1ncc([S@](N)(=O)=NC(=O)Nc2c3c(cc4c2CCC4)CCC3)s1  half-life (healthy human volunteers, plasma; oral, 30 mg once daily, day 14, capsule formulation): 15.9 h
N=C(N)NCCC[C@@H]1NC(=O)[C@H](Cc2c[nH]c3ccccc23)NC(=O)[C@@H](CC2CCCCC2)NC(=O)[C@@H]2CCCN2C(=O)[C@@H](NC(=O)CCc2ccccc2)CCCNC1=O  absorption rate constant (C57BL/6J mice, plasma; subcutaneous, 1 mg/kg, two-compartment model): 2.21 h⁻¹
CCCCCCc1ccc(Oc2ccccc2C#N)c(O)c1  absorption rate constant (CD-1 mice, plasma; subcutaneous, 100 mg/kg): 1.7 ± 1 h⁻¹
COCCOCCOCCOCCC(=O)NCc1cc(CNC(=O)CCOCCOCCOCCOC)cc(-c2cc3cc4nc(c(-c5ccc(CCC(=O)O)cc5)c5[nH]c(cc6nc(c(OC)c2[nH]3)CC6(C)C)cc5-c2cc(CNC(=O)CCOCCOCCOCCOC)cc(CNC(=O)CCOCCOCCOCCOC)c2)CC4(C)C)c1  kf^−1 (DMF; room temperature): 23 ns
CCNC(=O)OCc1c(COC(=O)NCC)c(-c2ccc(OC)cc2)n2c1Cc1ccccc1-2  ALT activity (BALB/c nude mice, blood; dose not given, day 10): 28.6 ± 1 U/L
CC(C)[C@H](NC(=O)[C@@H]1CCCN1C(=O)[C@H](CCCNC(=N)N)NC(=O)[C@H](CS)NC(=O)[C@H](Cc1c[nH]c2ccccc12)NC(=O)[C@H](CCCNC(=N)N)NC(=O)[C@@H](Cc1ccccc1)NC(=O)[C@H](Cc1c[nH]cn1)NC(=O)[C@H](CCC(=O)O)NC(=O)[C@H](CS)NC(=O)[C@H](CS)NC(=O)CNC(=O)[C@@H]1CC(=O)N[C@@H](CCCNC(=N)N)C(=O)NCC(=O)N[C@@H](CC(=O)O)C(=O)N[C@H](Cc2ccc(O)cc2)C(=O)N1)C(N)=O [technetium-99m labelled]  tumour to tissue ratio (C57 mouse, female, B16/F1 melanoma; intravenous, 0.037 MBq, 0.5 h; relative to: tumour over liver): 2.74
[2H]C([2H])([2H])Oc1cc2c(cc1OC([2H])([2H])[2H])[C@H]1CC(=O)[C@H](CC(C)C)CN1CC2  subjects with adverse event (measured: somnolence; human; oral, 25 mg): 19%
Cn1c(=O)oc2ccc(-c3ccc(CC(C#N)NC(=O)C4CNCCCO4)c(F)c3)cc21 (centres unmarked)  tlag median (human; 40 mg, single dose, fed): 0 h
CC(C)c1cnc(-c2cc(Cl)ccc2F)cc1Nc1ccncc1C(=O)NC(CO)CO  patients with treatment-related adverse event (monotherapy, measured: myalgia; human patients; oral, dose not given, grade 4, phase I A): 0%
NC(=O)[C@@H](Cc1ccccc1)N[11C](=O)OCc1ccccc1  intact tracer (male Wistar rats, plasma; intravenous, 5 min): 79.6% and 80%
CCN(CC)c1ccc2c(-c3ccccc3C(=O)OCCOCCOCC[18F])c3ccc(=[N+](CC)CC)cc-3oc2c1  tissue uptake (rat, heart; 60 min): 1.32 %ID/g and 1.03 %ID/g
NC12CNCCNCC(NCc3ccc(CNC(=O)CCCC(=O)NCc4ccc(-c5nncnn5)cc4)cc3)(CNCCNC1)CNCCNC2.[64Cu+2]  mean absorbed dose (OLINDA dosimetry; gallbladder wall; pretargeting, 24-h interval): 0.0393 rad/mCi
NC[C@@H](C(=O)Nc1ccc(-c2cn[nH]c2)cc1)c1ccccc1  chemosis score (OECD 405 eye irritation; New Zealand White rabbit, eye; topical, 0.1%, 49 h (day 3), scale 0 to 4; direction not given): 0
[11CH3]c1ccc2nc(C3CCC3)n(-c3ccc4[nH]ncc4c3)c2n1  tracer uptake (mouse, heart; 1 min): ≥ 5 %ID/g
C#CCN(CCCNC(=O)CCCCC[N+]1=C(/C=C/C2=C(Cl)C(=C/C=C3\N(CCCCCC(=O)[O-])c4ccccc4C3(C)C)/CCC2)C(C)(C)c2ccccc21)CCCOc1ccc(Cl)cc1Cl  concentration (mouse plasma; 1 µg/mL nominal, 3 freeze-thaw cycles at -80 °C): 950 ± 30 ng/mL
Cc1ccc(OCC(=O)N(Cc2cccs2)c2ccn[nH]2)cc1  dose-normalised AUC(0-last) (beagle dog, male, plasma; oral gavage, 10 mg/kg): 11.9 ng·h/mL/mg/kg
CCCCCCCCCCCCCCCC(=O)OCC(CSC[C@H](N)C(=O)NCC(=O)N[C@@H](CC(=O)O)C(=O)N1CCC[C@H]1C(=O)N[C@@H](CCCCN)C(=O)N[C@@H](Cc1c[nH]cn1)C(=O)N1CCC[C@H]1C(=O)N[C@@H](CCCCN)C(=O)N[C@@H](CO)C(=O)N[C@@H](Cc1ccccc1)C(=O)O)OC(=O)CCCCCCCCCCCCCCC (some centres unmarked)  Cmax (LC-MS/MS; rhesus monkey, non-irradiated, plasma; subcutaneous, 0.09 mg/kg single dose): 116 ng/mL
Nc1nccc(-c2cn(C3CC3)c3ccccc23)n1  excreted amount (radio-HPLC, co-eluting peaks pooled; human male, feces; oral, 110 mg, 0 to 240 h, sample holds 81.99% dose; relative to: dose): 0.94%
CCc1c2c(nc3ccc(O)cc13)-c1cc3c(c(=O)n1C2)COC(=O)[C@]3(O)CC  AUC(0-inf) (human patients, plasma; intravenous, 177 mg/m^2 of parent drug): 2650 ng·h/mL
CN(C(=O)Cn1c(=O)oc2ccc(-c3ccc(OCC[18F])cc3)cc21)c1ccccc1  intact parent fraction (ischemic Sprague-Dawley rats, plasma; intravenous, 10 MBq radiolabelled, 30 min): 8.6 ± 1.9%
CCCC[C@H](NC(=O)CNC(=O)CNC(=O)CN1CCN(CC(=O)O)CCN(CC(=O)O)CC1)C(=O)N[C@H]1CC(=O)NCCCC[C@@H](C(N)=O)NC(=O)[C@H](Cc2c[nH]c3ccccc23)NC(=O)[C@H](CCCNC(=N)N)NC(=O)[C@@H](Cc2ccccc2)NC(=O)[C@H](Cc2c[nH]cn2)NC1=O [copper-64 labelled]  tissue uptake (female C57 mouse, B16/F1 melanoma, kidneys; intravenous, 0.037 MBq, 4 h): 3.53 ± 0.57 %ID/g
CC(C)C[C@@H](N)C(=O)N[C@H](CC(=O)O)C(=O)N[C@@H](C(=O)N[C@H](Cc1ccccc1)C(=O)N[C@H](CC(C)C)C(=O)N[C@H](Cc1ccc(O)cc1)C(=O)N[C@H](CO)C(=O)N[C@H](CCC(=O)O)C(=O)O)C(C)C  red blood cell count (mouse, 4T1 and MC-38 tumour models; dose not given): no effect
COc1ccc(-c2csc(N/N=C(\C)c3cc(O)cc(O)c3)n2)cc1  concentration after storage (LC-MS/MS; rat plasma; 3.75 ng/mL, freeze-thaw 5 cycles at -70 °C): 3.48 ng/mL
COc1cc2ncnc(Oc3ccc(Nc4nccc5[nH]cc(-c6ccc(F)cc6)c(=O)c45)cc3F)c2cc1OC  CL (Sprague-Dawley rat, male, plasma; oral, 10 mg/kg): 0.333 mL/min/kg
CC[C@@H](C)[C@@H](NC(=O)[C@@H](C)NC(=O)[C@@H](CCCCN)NC(=O)[C@@H](CC(C)C)NC(=O)[C@@H](C)NC(=O)[C@H](NC(=O)[C@@H](CCCCN)NC(=O)[C@@H](CC(C)C)NC(=O)[C@H](NC(=O)[C@@H](CCCCN)NC(=O)[C@@H](CCCCN)NC(=O)[C@@H](CCCCN)NC(=O)[C@@H](C)NC(=O)[C@@H](CCCCN)NC(=O)[C@@H](CO)NC(=O)[C@@H](Cc1ccccc1)NC(=O)[C@H](NC(=O)[C@@H](CCCCN)NC(=O)[C@@H](CC(C)C)NC(=O)[C@@H](Cc1ccccc1)NC(=O)[C@@H](CO)NC(=O)[C@@H](CCCCN)NC(=O)[C@@H](Cc1c[nH]c2ccccc12)NC(=O)[C@@H](CCCCN)NC(C)=O)[C@H](C)O)C(C)C)[C@H](C)O)C(=O)N[C@H](CO)C(=O)N[C@H](CCCCN)C(N)=O  helical content (circular dichroism; 50% trifluoroethanol buffer; 5 °C; relative to: reference peptide in TFE): 78%
OCc1cn(Cc2ccc(-c3noc(-c4ccc(OCC[18F])c(C(F)(F)F)c4)n3)cc2)nn1  brain uptake (Lewis rats, female, cerebellum; intravenous, 5 min): 0.53 %ID/g
Cc1cc(O)cc(O)c1C(=O)c1c2c3c(c(O)cc(C)c3oc1=O)C(=O)c1c(O)cc(O)cc1-2  Papp A→B (Caco-2; 400 µM, 3 h, pH 7.4): 0.58 ×10⁻⁶ cm/s
C=C(c1ncc(C(=O)O)cn1)c1cc2c(cc1C)C(C)(C)CCC2(C)C  blood triglycerides (Sprague-Dawley rat, male; oral, 100 mg/kg, 6 h, sesame oil vehicle): 217 ± 60.1 mg/dL
COc1ccnc(C[S+]([O-])c2nc3cc(-n4cccc4)ccc3[nH]2)c1C (centres unmarked)  Vz/F ratio (male Sprague Dawley rats, plasma; oral, 10 mg/kg ilaprazole racemate; relative to: compound over R-ilaprazole): 1.14
CC(=O)N[C@H](CC(=O)O)C(=O)N[C@H](Cc1c[nH]c2ccccc12)C(=O)N[C@H](Cc1ccccc1)C(=O)N[C@H](CCCCN)C(=O)N[C@H](C)C(=O)N[C@H](Cc1ccccc1)C(=O)N[C@H](Cc1ccc(O)cc1)C(=O)N[C@H](CC(=O)O)C(=O)N[C@H](CCCCN)C(=O)N[C@@H](C(=O)N[C@H](C)C(=O)N[C@H](CCC(=O)O)C(=O)N[C@H](CCCCN)C(=O)N[C@H](Cc1ccccc1)C(=O)N[C@H](CCCCN)C(=O)N[C@H](CCC(=O)O)C(=O)N[C@H](C)C(=O)N[C@H](Cc1ccccc1)C(N)=O)C(C)C  Cmax (statin-treated high-risk CHD women, plasma; oral, 500 mg daily, day 13, 0 to 8 h, mean, all subjects): 197 ng/mL
NC(=O)/C=C/c1cccc(S(=O)(=O)Nc2ccccc2)c1  AUC(0-inf) metabolic ratio (human, mild liver dysfunction, plasma; intravenous, 400 mg/m^2 belinostat, cycle 1 day -7, geometric mean; relative to: metabolite over belinostat): 0.783

Some of these lines once more:
CCc1c2c(nc3ccc(O)cc13)-c1cc3c(c(=O)n1C2)COC(=O)[C@]3(O)CC  AUC(0-inf) (human patients, plasma; intravenous, 177 mg/m^2 of parent drug): 2650 ng·h/mL
CN(C(=O)Cn1c(=O)oc2ccc(-c3ccc(OCC[18F])cc3)cc21)c1ccccc1  intact parent fraction (ischemic Sprague-Dawley rats, plasma; intravenous, 10 MBq radiolabelled, 30 min): 8.6 ± 1.9%
CCCC[C@H](NC(=O)CNC(=O)CNC(=O)CN1CCN(CC(=O)O)CCN(CC(=O)O)CC1)C(=O)N[C@H]1CC(=O)NCCCC[C@@H](C(N)=O)NC(=O)[C@H](Cc2c[nH]c3ccccc23)NC(=O)[C@H](CCCNC(=N)N)NC(=O)[C@@H](Cc2ccccc2)NC(=O)[C@H](Cc2c[nH]cn2)NC1=O [copper-64 labelled]  tissue uptake (female C57 mouse, B16/F1 melanoma, kidneys; intravenous, 0.037 MBq, 4 h): 3.53 ± 0.57 %ID/g
